Experimental data collected from several papers.
Lines come from different studies, so protocols differ.
Target: Inhibitor of nuclear factor kappa-B kinase subunit alpha (CHUK, Homo sapiens, UniProt O15111)
Residues used in one study (O15111 1-745): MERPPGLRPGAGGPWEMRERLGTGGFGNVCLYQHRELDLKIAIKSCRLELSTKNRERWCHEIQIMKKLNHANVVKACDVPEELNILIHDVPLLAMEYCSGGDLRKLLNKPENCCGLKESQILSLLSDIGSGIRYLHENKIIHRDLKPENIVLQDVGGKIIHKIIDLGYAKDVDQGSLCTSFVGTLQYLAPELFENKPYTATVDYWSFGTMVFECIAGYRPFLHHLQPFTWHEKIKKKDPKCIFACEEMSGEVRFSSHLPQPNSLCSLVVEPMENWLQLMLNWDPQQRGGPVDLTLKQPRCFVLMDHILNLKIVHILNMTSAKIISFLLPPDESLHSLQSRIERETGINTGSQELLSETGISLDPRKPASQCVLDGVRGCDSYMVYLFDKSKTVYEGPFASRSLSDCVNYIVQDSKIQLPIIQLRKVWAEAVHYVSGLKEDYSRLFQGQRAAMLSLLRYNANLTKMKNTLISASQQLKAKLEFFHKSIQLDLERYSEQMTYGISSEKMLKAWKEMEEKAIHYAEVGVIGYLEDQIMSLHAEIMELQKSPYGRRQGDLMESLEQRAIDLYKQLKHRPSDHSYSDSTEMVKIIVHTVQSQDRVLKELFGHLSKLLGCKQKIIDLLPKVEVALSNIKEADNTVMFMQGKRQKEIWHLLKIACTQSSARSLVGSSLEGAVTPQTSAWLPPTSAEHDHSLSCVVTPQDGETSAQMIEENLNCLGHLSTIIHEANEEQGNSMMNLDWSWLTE

SMILES	test	system	setting	how to read	measurement	result
C[C@H](NCc1ccc(-c2ccc(C(F)(F)F)cc2)cc1)C(N)=O	cell-free assay, competition with immobilised ligand	–	1 µM	–	inhibition	3%
CCOC(=O)[C@@H]1Cc2c(cc([N+](=O)[O-])cc2[N+](=O)[O-])[C@H](O)[C@]12C(=O)Nc1ccc(Br)cc12	binding, competition with immobilised ligand	–	0.1 µM	–	remaining binding	47%
CN(C)[C@H]1C[C@@]23CC[C@@]4(O2)C(=CC[C@]2(C)[C@@H](c5ccc6ccncc6c5)CC[C@H]24)C=C3[C@@H](O)[C@@H]1O	ATP probe labelling, inhibitor, KiNativ profiling	–	0.1 µM	–	inhibition	11.3%
CS(C)(=O)=Nc1ccc(-c2ccc(-c3nc4cc(O[C@@H]5CO[C@H]6[C@@H]5OC[C@H]6O)[nH]c4cc3F)cc2)cc1	enzyme activity, inhibitor	–	10 µM	–	inhibition	14%
Nc1ccc(/C=C/C(=O)N2CCc3c(oc4c(-c5ccc(F)cc5)cc(-c5ccc(C(=O)N6CCC(F)(F)CC6)cn5)cc34)C2)cn1	binding, competition with immobilised ligand	–	1 µM	–	remaining binding	100%
CC(C)[C@H]1NC(=O)C[C@H]2/C=C/CCSSC[C@@H](NC1=O)C(=O)N[C@H](Cc1cccc3ccccc13)C(=O)NCC(=O)O2	enzyme activity, inhibitor	–	10 µM	–	inhibition	-0.468%
C=CC(=O)Nc1cc(-c2nn(C3CCC(N4CCN(C(C)=O)CC4)CC3)c3ncnc(N)c23)ccc1Oc1ccccc1 (stereo not drawn)	inhibitor, KiNativ profiling	biochemical	2 µM	–	inhibition	-4.5%
O=C(O)c1ccccc1/C=N/Nc1nc(-c2ccccc2Cl)cs1	enzyme activity, inhibitor	–	1 µM	–	inhibition	-10.7%
O=C1NC(=O)c2c1c1cc(F)c[n+]3c1c1c2c2cc(O)ccc2[n]1[Ru-4]312([N]=C=S)[S+]3CC[S+]1CC[S+]2CC3 (stereo not drawn)	enzyme activity	–	100 nM, human enzyme, together with: 10 µM ATP	reference: untreated	remaining activity	111%

Excerpt of the above:
SMILES	test	system	setting	how to read	measurement	result
CCOC(=O)[C@@H]1Cc2c(cc([N+](=O)[O-])cc2[N+](=O)[O-])[C@H](O)[C@]12C(=O)Nc1ccc(Br)cc12	binding, competition with immobilised ligand	–	0.1 µM	–	remaining binding	47%
